Assay results of several laboratories.
Protocols differ between the studies behind these lines. ± gives the spread as reported. Values after ≈ are worked out from the molar mass of the structure shown.

Amino acid sequences for entries named in this document (tags omitted).
UniProt Q14289, whole entry: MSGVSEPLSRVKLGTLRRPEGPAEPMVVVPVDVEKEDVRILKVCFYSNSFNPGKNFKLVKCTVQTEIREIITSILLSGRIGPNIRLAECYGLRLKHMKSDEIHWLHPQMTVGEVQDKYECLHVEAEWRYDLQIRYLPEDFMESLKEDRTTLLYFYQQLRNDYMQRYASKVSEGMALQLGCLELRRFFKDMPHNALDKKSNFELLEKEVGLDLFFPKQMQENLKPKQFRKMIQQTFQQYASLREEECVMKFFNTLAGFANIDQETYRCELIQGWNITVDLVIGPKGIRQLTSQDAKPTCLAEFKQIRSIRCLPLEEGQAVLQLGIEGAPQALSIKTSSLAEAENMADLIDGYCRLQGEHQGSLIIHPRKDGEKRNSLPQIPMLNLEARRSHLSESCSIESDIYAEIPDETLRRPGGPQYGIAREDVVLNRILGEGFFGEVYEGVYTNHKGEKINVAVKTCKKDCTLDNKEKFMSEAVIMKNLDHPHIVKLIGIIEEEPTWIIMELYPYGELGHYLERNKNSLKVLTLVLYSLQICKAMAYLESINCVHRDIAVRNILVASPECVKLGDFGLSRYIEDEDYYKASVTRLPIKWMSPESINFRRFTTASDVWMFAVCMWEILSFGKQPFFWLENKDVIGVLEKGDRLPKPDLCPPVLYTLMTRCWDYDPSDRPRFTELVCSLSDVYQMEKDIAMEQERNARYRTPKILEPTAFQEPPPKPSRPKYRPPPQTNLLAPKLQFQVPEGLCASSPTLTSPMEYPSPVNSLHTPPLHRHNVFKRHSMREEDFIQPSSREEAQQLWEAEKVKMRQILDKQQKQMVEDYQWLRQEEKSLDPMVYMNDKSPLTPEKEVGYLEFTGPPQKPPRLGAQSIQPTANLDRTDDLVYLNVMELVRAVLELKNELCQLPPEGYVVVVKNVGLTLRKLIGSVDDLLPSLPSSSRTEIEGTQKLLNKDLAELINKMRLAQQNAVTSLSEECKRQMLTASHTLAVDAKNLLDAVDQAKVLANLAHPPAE
UniProt P21917, whole entry: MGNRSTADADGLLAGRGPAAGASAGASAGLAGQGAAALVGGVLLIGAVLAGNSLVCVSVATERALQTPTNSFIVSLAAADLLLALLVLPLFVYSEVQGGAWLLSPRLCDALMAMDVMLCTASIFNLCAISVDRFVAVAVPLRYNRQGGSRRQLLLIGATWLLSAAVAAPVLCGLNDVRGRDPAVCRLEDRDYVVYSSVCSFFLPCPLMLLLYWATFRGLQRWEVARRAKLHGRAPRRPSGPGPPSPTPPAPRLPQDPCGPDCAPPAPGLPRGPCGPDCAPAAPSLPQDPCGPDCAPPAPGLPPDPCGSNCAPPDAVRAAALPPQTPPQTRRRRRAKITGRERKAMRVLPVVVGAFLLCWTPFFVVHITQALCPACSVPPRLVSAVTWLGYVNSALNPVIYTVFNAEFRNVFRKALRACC

CC#C/C(=N\OC[C@H]1COCCN1)c1ccc2ncnc(Nc3ccc(OCc4cccc(F)c4)c(Cl)c3)c2c1  inhibition (PTK2B (Homo sapiens, UniProt Q14289); kinase activity; 10 µM): 13.3%
CCCSc1nc(N[C@@H]2C[C@H]2c2ccc(F)c(F)c2)c2nnn([C@@H]3C[C@H](OCCO)[C@@H](O)[C@H]3O)c2n1  plasma concentration (STEMI patients, plasma; 180 mg loading dose, 4 h, with: morphine): 294 ± 551 ng/mL
Cc1cn(CC(=O)N(CCNC(=O)CN(CCNC(=O)CN(CCNC(=O)CN(CCNC(=O)CN(CCNC(=O)CN(CCNC(=O)CN(CCNC(=O)CN(CCNC(=O)CN(CCNC(=O)CN(CCNC(=O)COCCOCCNC(=O)COCCOCCNC(=O)[C@H](CNC(=O)[C@H](CNC(=O)[C@H](CNC(=O)[C@H](CNC(=O)COCCOCCNC(=O)CN2CCN(CC(=O)O)CCN(CC(=O)O)CCN(CC(=O)O)CC2)NC(=O)COCCOCCNC(=O)CN2CCN(CC(=O)O)CCN(CC(=O)O)CCN(CC(=O)O)CC2)NC(=O)[C@H](CNC(=O)COCCOCCNC(=O)CN2CCN(CC(=O)O)CCN(CC(=O)O)CCN(CC(=O)O)CC2)NC(=O)COCCOCCNC(=O)CN2CCN(CC(=O)O)CCN(CC(=O)O)CCN(CC(=O)O)CC2)NC(=O)[C@H](CNC(=O)[C@H](CNC(=O)COCCOCCNC(=O)CN2CCN(CC(=O)O)CCN(CC(=O)O)CCN(CC(=O)O)CC2)NC(=O)COCCOCCNC(=O)CN2CCN(CC(=O)O)CCN(CC(=O)O)CCN(CC(=O)O)CC2)NC(=O)[C@H](CNC(=O)COCCOCCNC(=O)CN2CCN(CC(=O)O)CCN(CC(=O)O)CCN(CC(=O)O)CC2)NC(=O)COCCOCCNC(=O)CN2CCN(CC(=O)O)CCN(CC(=O)O)CCN(CC(=O)O)CC2)NC(=O)[C@H](CNC(=O)[C@H](CNC(=O)[C@H](CNC(=O)COCCOCCNC(=O)CN2CCN(CC(=O)O)CCN(CC(=O)O)CCN(CC(=O)O)CC2)NC(=O)COCCOCCNC(=O)CN2CCN(CC(=O)O)CCN(CC(=O)O)CCN(CC(=O)O)CC2)NC(=O)[C@H](CNC(=O)COCCOCCNC(=O)CN2CCN(CC(=O)O)CCN(CC(=O)O)CCN(CC(=O)O)CC2)NC(=O)COCCOCCNC(=O)CN2CCN(CC(=O)O)CCN(CC(=O)O)CCN(CC(=O)O)CC2)NC(=O)[C@H](CNC(=O)[C@H](CNC(=O)COCCOCCNC(=O)CN2CCN(CC(=O)O)CCN(CC(=O)O)CCN(CC(=O)O)CC2)NC(=O)COCCOCCNC(=O)CN2CCN(CC(=O)O)CCN(CC(=O)O)CCN(CC(=O)O)CC2)NC(=O)[C@H](CNC(=O)COCCOCCNC(=O)CN2CCN(CC(=O)O)CCN(CC(=O)O)CCN(CC(=O)O)CC2)NC(=O)COCCOCCNC(=O)CN2CCN(CC(=O)O)CCN(CC(=O)O)CCN(CC(=O)O)CC2)C(=O)Cn2cnc3c(=O)[nH]c(N)nc32)C(=O)Cn2ccc(N)nc2=O)C(=O)Cn2ccc(N)nc2=O)C(=O)Cn2cnc3c(N)ncnc32)C(=O)Cn2cc(C)c(=O)[nH]c2=O)C(=O)Cn2ccc(N)nc2=O)C(=O)Cn2cnc3c(N)ncnc32)C(=O)Cn2cnc3c(=O)[nH]c(N)nc32)C(=O)Cn2ccc(N)nc2=O)CC(=O)NCCN(CC(=O)NCCN(CC(=O)NCCOCCOCC(=O)N[C@@H]2CSSC[C@H](C(N)=O)NC(=O)[C@@H](CCCCN)NC(=O)[C@@H](CO)NC2=O)C(=O)Cn2ccc(N)nc2=O)C(=O)Cn2ccc(N)nc2=O)c(=O)[nH]c1=O  breakdown fragments (RP-HPLC; mouse, urine; dose not given, 3.5 h): not detected
CC[C@@H](C(N)=O)N1CCCC1=O  Tmax (Sprague Dawley rat, brain; intraperitoneal, 800 mg/kg): 1 h
CC[C@@H](C(N)=O)N1CCCC1=O  terminal half-life (LC-MS/MS; rat, control, whole blood; oral, 50 mg/kg levetiracetam, with: atropine 5 mg/kg): 4.18 h
CCCN1CCN(c2ccc3c(c2)C2CC3CCN2C(=O)OCc2ccccc2)CC1 (stereo not drawn)  Ki (DRD4 (Homo sapiens, UniProt P21917); binding, radioligand binding): > 10 µM
C=C[C@@H]1[C@H]2CCC[C@]1(c1cccc(O)c1)CCN2CCc1ccccc1  half-life (human liver microsomes 0.5 mg/mL; 1 µM, pH 7.4, with: NADPH): 8 min
C[C@@H]1NC(=O)[C@@H]2CCCN2C(=O)[C@H](CC(N)=O)NC(=O)[C@H](Cc2c[nH]c3ccccc23)NC(=O)[C@@H]2CSSC[C@@H](C(N)=O)NC(=O)[C@H](Cc3ccc(O)cc3)NC(=O)[C@H](Cc3c[nH]cn3)NC(=O)[C@H](CCCCN)NC(=O)CNC(=O)[C@H](CSSC[C@H](NC(=O)CN)C(=O)N2)NC1=O  degradation to non-isomer products (RP-HPLC; mouse serum 25%; 50 µM, 6 h, 37 °C): 29.1 ± 0.94%
C[C@H](Cc1ccc(O)c(O)c1)[C@@H](C)Cc1ccc(O)c(O)c1  solubility (water; 24 h, room temperature): 80 µg/mL (≈ 265 µM)
CCN1CCN(Cc2ccc(NC(=O)c3ccc(C)c(/C=C/c4cnc5[nH]ccc5c4OC)c3)cc2C(F)(F)F)CC1  log2 fold change (human ABL1 G2A; kinase-CDC37 interaction, inhibitor; human cells; 5 µM; relative to: vehicle): -0.419
C=C(C)[C@@H]1[C@H]2OC(=O)[C@@H]1[C@]1(O)C[C@H]3O[C@]34C(=O)O[C@H]2[C@]14C  mice with seizures (male NIH-NCI Swiss mice; intraperitoneal, 2 mg/kg, Racine score 3 to 5): 75%
CCCCCCCCCCCCCCCC(=O)NCCCC[C@H](NC(=O)CNC(=O)[C@H](CO)NC(=O)CNC(=O)[C@H](CCC(N)=O)NC(=O)[C@H](Cc1c[nH]cn1)NC(=O)[C@H](Cc1c[nH]c2ccccc12)NC(=O)[C@H](CC(N)=O)NC(=O)CNC(=O)[C@@H](NC(=O)[C@H](CO)NC(=O)[C@H](CC(=O)O)NC(=O)[C@H](CC(C)C)NC(=O)[C@@H](NC(=O)[C@H](CCCCN)NC(=O)[C@H](CC(N)=O)NC(=O)[C@H](CO)NC(=O)[C@H](CCCNC(=N)N)NC(=O)[C@H](CCCNC(=N)N)NC(=O)[C@@H](NC(=O)[C@H](Cc1c[nH]c2ccccc12)NC(=O)[C@H](CCC(=O)O)NC(=O)[C@H](CCCCN)NC(=O)[C@H](CO)NC(=O)[C@H](CCC(=O)O)NC(=O)[C@H](CCC(=O)O)NC(=O)[C@H](CC(C)C)NC(=O)[C@H](CC(=O)O)NC(=O)[C@H](CO)NC(=O)[C@H](CCCCN)NC(=O)[C@@H](NC(=O)[C@H](CCCCN)NC(=O)[C@H](CC(N)=O)NC(=O)[C@H](CC(C)C)NC(=O)[C@@H](NC(=O)[C@@H](NC(=O)[C@H](CO)NC(=O)[C@@H](NC(=O)[C@H](CC(=O)O)NC(=O)[C@@H](N)[C@@H](C)CC)[C@@H](C)CC)[C@@H](C)CC)C(C)C)[C@@H](C)CC)[C@@H](C)CC)[C@@H](C)CC)[C@@H](C)CC)C(=O)O  solubility (water): 720 ± 40 µg/mL (≈ 149 µM)

A few entries again:
CCCSc1nc(N[C@@H]2C[C@H]2c2ccc(F)c(F)c2)c2nnn([C@@H]3C[C@H](OCCO)[C@@H](O)[C@H]3O)c2n1  plasma concentration (STEMI patients, plasma; 180 mg loading dose, 4 h, with: morphine): 294 ± 551 ng/mL
